Published values from different studies.
Every numbered part comes from another study and shows a few of its results, in no order.

Series 1
Target: RNA binding protein fox-1 homolog 2, RRM domain, GST-SBP tag (RBFOX2, Homo sapiens, UniProt O43251-10, residues 100-194)
Method: RNA Bind-n-Seq
Form: RNA
Matrix: in vitro
Tested at: 365 nM
Setting: natural RNA segment, single round, ends assumed
Baseline: no-protein control
Direction: higher = stronger binding
Target sequence (chain): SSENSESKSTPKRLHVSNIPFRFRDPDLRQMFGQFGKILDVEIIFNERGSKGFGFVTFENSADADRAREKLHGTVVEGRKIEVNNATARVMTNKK
| Strand | RBNS enrichment (R) |
| --- | --- |
| GGGAGUUCUACAGUCCGACGAUCGACCAGGCUGAGUCAGUAAAGGAGGCGCGGGCCUCGACGCCCACGCUGGCAGCUUUGACAGAAACUCUUCCGUGGUCGGCCUUUCACCUCUUCACUUUCGCUUGGUCCCAUGGAAUUCUCGGGUGCCAA | 0.319 |
| GGGAGUUCUACAGUCCGACGAUCUGGCUGGCUCUCUGAACAUCAGGAAACCAGGGCCUCCCACCACAAGCCAGCCUCACCAACAACACCAUGUCUGCUCAGCAGUAUGCAGAUAUGUGGGGAUAGUCUCUCAGUGGAAUUCUCGGGUGCCAA | 0.503 |
| GGGAGUUCUACAGUCCGACGAUCGCUGUCUUUUGCUUCUGUUUGAUUUGGUCUGCGUAUCUUUUAAUGUGUCUGUUUUGUUUUGUUUGUUUCGUUUUUAUUUUUCAGUUAAAGCACGCACAGACAUACAUGUCUGGAAUUCUCGGGUGCCAA | 3.65 |
| GGGAGUUCUACAGUCCGACGAUCAAUUAUGAGUGGCAGAGCUUUCUGUGUAUAAUUUGUCUACAUAAUUUGUCUAAUAAAAAUGUUUUCUAAACUUGCUCUCAUACUAUUGAAGUCUUAACUAUAAAAGUAAAUGGAAUUCUCGGGUGCCAA | 0.629 |

Series 2
Target: Prothrombin, mature alpha-thrombin (F2, Homo sapiens, UniProt P00734)
Method: aptamer microarray, sandwich
Form: DNA with 2'F-ANA
Matrix: in vitro
Tested at: 200 nM
Setting: whole 15-mer aptamer, many near background
Together with: Cy3 exosite-II aptamer, 400 nM
Direction: higher = stronger binding
Strand: GGTTGGTGTGGTTGG
| Modification | mean fluorescence intensity |
| --- | --- |
| 2'F-ANA at 1 3 8 10 12 14 | 59.8 a.u. |
| 2'F-ANA at 1 2 6 7 9 11 12 15 | 215 a.u. |
| 2'F-ANA at 1 2 3 5 10 13 15 | 46.3 a.u. |
| 2'F-ANA at 2 8 9 10 12 15 | 164 a.u. |
| 2'F-ANA at 1 6 7 11 14 | 52.1 a.u. |
| 2'F-ANA at 1 3 5 6 7 8 11 12 14 15 | 54.1 a.u. |

Series 3
Target: Interferon regulatory factor 7, full length, phosphomimetic (IRF7, Homo sapiens, UniProt Q92985, residues 1-503, S101K/S471D/S472D/S475D/S476D/S477D/S483D/S484D/S487D)
Chain of UniProt Q92985 (whole entry, unmodified, looked up): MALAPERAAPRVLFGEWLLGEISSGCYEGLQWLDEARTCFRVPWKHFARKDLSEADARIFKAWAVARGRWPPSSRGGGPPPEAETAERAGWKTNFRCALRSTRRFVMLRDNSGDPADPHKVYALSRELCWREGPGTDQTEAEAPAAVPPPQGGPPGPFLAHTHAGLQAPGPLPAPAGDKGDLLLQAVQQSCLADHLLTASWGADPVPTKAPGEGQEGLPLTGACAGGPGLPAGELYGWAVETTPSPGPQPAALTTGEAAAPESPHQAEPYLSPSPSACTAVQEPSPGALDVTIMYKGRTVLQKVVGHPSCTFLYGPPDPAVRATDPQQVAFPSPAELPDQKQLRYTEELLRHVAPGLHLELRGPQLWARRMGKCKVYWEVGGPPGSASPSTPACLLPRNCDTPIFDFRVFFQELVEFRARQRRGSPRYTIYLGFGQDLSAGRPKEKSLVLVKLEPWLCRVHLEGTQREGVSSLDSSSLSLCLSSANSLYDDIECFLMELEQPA
Method: protein-binding microarray
Form: double-stranded DNA, one strand shown
Matrix: in vitro
Tested at: 250 nM
Setting: 60-bp whole probe
Together with: salmon DNA 0.4 mg/ml
Baseline: random background probes
Direction: higher = stronger binding
All sequences stand within: GCCTAGCAC … GTCTTGATTCGCTTGACGCTGCTG
| Strand | log fluorescence [z-score] |
| --- | --- |
| TCAGATCACCGATTTCCTACTGTGCTA | 0.12 |
| TTAGGTAACGACTTTCGGTTAGTGCTA | 1.68 |
| TTAGGACTGCTGATCCTTTAGTGCTAG | -0.518 |
| CGTATCTTCATTGTCATGTAGTGCTAG | 1.73 |
| TTAGGTTTGCTACTGCTTTAGTGCTAG | -0.162 |

Single results of other studies
| Molecule | target | assay | test system | conditions | how to read | endpoint | result |
| --- | --- | --- | --- | --- | --- | --- | --- |
| PhoQ, residues 284 288 289 292 302 303 SNGLAW | PhoP, residues 12 14 15 18 19 GQAIL (Escherichia coli, UniProt P23836) | Sort-seq, refers to: YFP reporter | E. coli | PhoQ-PhoP variant library, together with: 10 µM Mg2+ | baseline: high Mg2+ state, higher = stronger signaling | fold induction | 9.89 |

Some of these lines once more (series 1):
| Strand | RBNS enrichment (R) |
| --- | --- |
| GGGAGUUCUACAGUCCGACGAUCGCUGUCUUUUGCUUCUGUUUGAUUUGGUCUGCGUAUCUUUUAAUGUGUCUGUUUUGUUUUGUUUGUUUCGUUUUUAUUUUUCAGUUAAAGCACGCACAGACAUACAUGUCUGGAAUUCUCGGGUGCCAA | 3.65 |
| GGGAGUUCUACAGUCCGACGAUCAAUUAUGAGUGGCAGAGCUUUCUGUGUAUAAUUUGUCUACAUAAUUUGUCUAAUAAAAAUGUUUUCUAAACUUGCUCUCAUACUAUUGAAGUCUUAACUAUAAAAGUAAAUGGAAUUCUCGGGUGCCAA | 0.629 |
